Assay results of several laboratories.
Numbered parts are unrelated; each lists some results of a single study.

Series 1 — technique: universal PBM; molecule type: double-stranded DNA, one strand shown; sample: in vitro; tested at: 600 nM; direction: higher = stronger binding
Target: Sal-like protein 4, full length isoform A (SALL4, Homo sapiens, UniProt Q9UJQ4, residues 1-1053)
Sequence of UniProt Q9UJQ4 (whole entry, looked up): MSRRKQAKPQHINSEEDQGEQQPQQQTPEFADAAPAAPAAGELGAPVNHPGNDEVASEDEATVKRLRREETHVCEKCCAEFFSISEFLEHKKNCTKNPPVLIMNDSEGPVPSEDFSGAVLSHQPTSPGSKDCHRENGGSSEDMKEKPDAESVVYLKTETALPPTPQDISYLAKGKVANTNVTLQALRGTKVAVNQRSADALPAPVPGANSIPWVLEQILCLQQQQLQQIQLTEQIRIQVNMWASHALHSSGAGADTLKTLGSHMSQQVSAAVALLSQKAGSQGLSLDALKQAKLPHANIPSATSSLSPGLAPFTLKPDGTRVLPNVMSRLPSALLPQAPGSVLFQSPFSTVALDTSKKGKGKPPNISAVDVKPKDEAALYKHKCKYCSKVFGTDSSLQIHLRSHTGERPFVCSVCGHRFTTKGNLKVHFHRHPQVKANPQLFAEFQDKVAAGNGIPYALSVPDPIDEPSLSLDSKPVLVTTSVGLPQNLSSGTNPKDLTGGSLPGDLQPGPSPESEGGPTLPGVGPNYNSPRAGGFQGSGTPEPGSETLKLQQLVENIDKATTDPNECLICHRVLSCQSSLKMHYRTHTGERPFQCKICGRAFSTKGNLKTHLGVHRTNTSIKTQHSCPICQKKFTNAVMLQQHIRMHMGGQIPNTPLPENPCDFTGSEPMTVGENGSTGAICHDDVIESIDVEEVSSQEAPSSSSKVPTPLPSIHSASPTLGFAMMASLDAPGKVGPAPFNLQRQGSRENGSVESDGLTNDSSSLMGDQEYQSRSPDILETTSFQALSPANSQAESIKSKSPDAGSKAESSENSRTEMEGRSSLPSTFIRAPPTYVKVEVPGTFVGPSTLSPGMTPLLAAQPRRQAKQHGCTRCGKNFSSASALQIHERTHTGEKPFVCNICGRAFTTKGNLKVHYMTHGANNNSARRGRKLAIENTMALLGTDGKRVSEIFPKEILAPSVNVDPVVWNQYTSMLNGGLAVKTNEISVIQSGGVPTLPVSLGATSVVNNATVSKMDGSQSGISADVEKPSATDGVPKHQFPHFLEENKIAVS
Setting: 8-mer, flanks averaged, mean of replicates
Strand | E-score
TGGCTTAA | 0.109
AAGCCATA | 0.115
GGCATGCA | -0.0796
CTTAGTTA | 0.137
GGCCCTAC | -0.339
CGTGATTC | 0.0286
ACCATACT | 0.11
ACAGATGC | 0.0751
GCGTTACA | 0.163
GACTAGTC | -0.134
AACTGTCA | 0.0989
ACTCGGAG | -0.0699
ATATGGAA | 0.31
TCACGACA | 0.0367
TAAGCAGA | -0.0185
AGGTTCAA | 0.0693
ATAAGTCG | 0.136
AAGTGGCC | -0.14
CATTGCGC | -0.0199
GATCGACC | -0.269
AAAACACG | 0.105
CTCAATTC | 0.0931
AACATCAA | 0.243
CAGTGCGA | -0.0835
CAAAGAGA | 0.0728

Series 2 — technique: RNA Bind-n-Seq; molecule type: RNA; sample: in vitro; tested at: 365 nM; reference: no-protein control; direction: higher = stronger binding
Target: RNA binding protein fox-1 homolog 2, RRM domain, GST-SBP tag (RBFOX2, Homo sapiens, UniProt O43251-10, residues 100-194)
Setting: natural RNA segment, single round, ends assumed
All sequences stand within: GGGAGUUCUACAGUCCGACGAUC … UGGAAUUCUCGGGUGCCAA
Target sequence (chain): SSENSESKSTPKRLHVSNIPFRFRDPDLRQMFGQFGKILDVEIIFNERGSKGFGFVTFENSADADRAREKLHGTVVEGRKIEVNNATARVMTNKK
Strand | RBNS enrichment (R)
AGCUAUUGUCAGCUUCUCUAUUUCAAAAUGCAAUCAGCAUAUAACUAUAUUGAUAUUAGAAGAUAUUUGUUUUUUAAAAUAUAUUGAUGUAUGAUAAAGAUGAUCUAAUU | 0.655
AUACAAGUCGUGCAGAGCAUGAAGCAGCUUACCUAACUCUUAAACUAUCCUAAGCAAUGUGUGCUUGCCUGUUAGUGAGGGUGUAGGUUGAGCCCAAGUGGUGGAGUCCU | 2.51
UCAGAGUGAGGGGCAUAGUGAAAAAGGAACAGCCAUGCCUCAAAAUCAAAUCAUUUGCAUUCCCACAGCAUCCUGAAUACCGACUACCUCUUCACUUGCUAAAGCAGCUA | 0.38
CGGUGGUGAUAUUUUUCAUCCCCAACCCAUUGGACUCCAUCAUAUAAUCAUGAGUCAUGCAGAGCCAAGAAAAGAAAUAUAUUAUGGUAUAUGUAAAGUGAUAUUUCGCU | 0.666
UUCCUGUAAUCACACGAGCACAUUUAUAUAUGCAGUUUCCCAUGGAUAGGCGUGUGACCCUGGUUGAGUGGCACUUGCGGUUUCAUCUUGGUGGCAACUCCUUUGCAAUG | 0.482
UGUAUGUUUAAAAGAUAGCAUCUAGAAUGAUCACUUGUGCUUAGCGUAGCAUUGUAAGCGCUGAAGUAUAUAUUUUCUUCAGUAAGUCUCUUUAAAAUUUCAAGUGUUAU | 1.93
UCCGUCCCCAAUCUAAAAAGCAAUUGAAAAGGUCUAUGCAAUAAAGGCAGUCGCUUCAUUCCUCUCAGACCUUCUGCCCUUCCUCCAUCCGACAGCCCGCGGGAGGACUC | 0.82
UUAAAUACAGUCUUCCAUUUGCAAGGGAAAAGUCUCUUGUAAUCCGAAUCUCUUUUUGCUUUCGAACUGCUAGUCAAGUGCGUCCACGAGCUGUUUACUAGGGAUCCCUC | 0.228
GGAACACGCGGGUAGAUGAUUUCUAGCAGGCAGGAAGUCCUGUGCGGUGUCACCAUGAGCACCUCCAGCUGUACUAGUGCCAUUGGAAUAAUAAAUUUGAUAAGGUGGUG | 0.486
ACAGAAGAACUCUGGUAAUGCUUAGUCUUGUGAGAACCAGUUAUUCUGGGCUGUGAAGGCAGUUGCCACUGUUAUGCAGUGGCUGCUUUUGAGGGACGCACUGUGAAGAA | 0.758
AAAGGGAUAUAUAUGAGAAGUGAUUACUCCAAAGAAUAUUAAUCUUAAAAGAAAGCAGUAUAGAUGUCUUACCAUGAAAUACAUUACUCUAGGCUAAAAUUUCAACUGUU | 0.552
CAUUGUCUAAGCACCGGCAAAUUAAAAUGUCGAGAAUCACUUCAGUCAAAAACCUUUAUAUUCUGUUCUUAAUAAUGUUUGUGCCAACCUAUAUCCCAUGUAAGGGAUCU | 0.692

Series 3 — technique: aptamer microarray, sandwich; molecule type: DNA with 2'F-ANA; sample: in vitro; tested at: 200 nM; together with: Cy3 exosite-II aptamer, 400 nM; direction: higher = stronger binding; strand: GGTTGGTGTGGTTGG
Target: Prothrombin, mature alpha-thrombin (F2, Homo sapiens, UniProt P00734)
Setting: whole 15-mer aptamer, many near background
Modification | mean fluorescence intensity [a.u.]
2'F-ANA at 1 2 5 7 11 14 15 | 44.7
2'F-ANA at 1 5 8 9 12 13 14 15 | 45.2
2'F-ANA at 1 3 4 5 6 9 11 15 | 52.1
2'F-ANA at 2 4 6 9 10 11 12 13 15 | 91.4
2'F-ANA at 1 2 7 10 11 12 | 60
2'F-ANA at 1 5 6 7 8 9 11 15 | 65.9
2'F-ANA at 1 2 6 7 8 11 12 15 | 286
2'F-ANA at 2 4 5 6 7 8 10 12 13 14 | 53.7
2'F-ANA at 1 3 9 10 12 13 14 | 62.9
2'F-ANA at 2 3 5 6 8 12 14 | 56.5
2'F-ANA at 1 9 11 13 14 | 50.4
2'F-ANA at 1 2 3 6 7 8 9 10 11 13 15 | 93.6
2'F-ANA at 1 3 4 5 6 9 11 14 15 | 68.7
2'F-ANA at 3 5 7 8 9 11 13 14 | 61.1
2'F-ANA at 1 2 3 5 7 8 11 12 | 112
2'F-ANA at 1 2 4 7 9 10 12 13 15 | 53.2
2'F-ANA at 2 3 4 5 6 13 14 15 | 62.2
2'F-ANA at 2 5 6 11 12 13 | 94.6
2'F-ANA at 1 2 4 6 8 12 14 15 | 60.1
2'F-ANA at 1 2 3 4 8 9 11 12 15 | 332
2'F-ANA at 1 3 6 8 10 11 12 13 | 94.9
2'F-ANA at 2 3 5 6 7 8 11 | 126
2'F-ANA at 3 7 8 10 12 13 | 730

Series 4 — technique: protein-binding microarray; molecule type: double-stranded DNA, one strand shown; sample: in vitro; tested at: 2540 nM top; setting: 60-bp whole probe; together with: salmon DNA 0.4 mg/ml; reference: random background probes; direction: higher = stronger binding; all sequences stand within: GCCTAGCAC … GTCTTGATTCGCTTGACGCTGCTG
Target: Interferon regulatory factor 3, full length, phosphomimetic (IRF3, Homo sapiens, UniProt Q14653, residues 1-427, S386D/S396D/S398D/S402D/T404D/S405D)
Sequence of UniProt Q14653 (whole entry, unmodified, looked up): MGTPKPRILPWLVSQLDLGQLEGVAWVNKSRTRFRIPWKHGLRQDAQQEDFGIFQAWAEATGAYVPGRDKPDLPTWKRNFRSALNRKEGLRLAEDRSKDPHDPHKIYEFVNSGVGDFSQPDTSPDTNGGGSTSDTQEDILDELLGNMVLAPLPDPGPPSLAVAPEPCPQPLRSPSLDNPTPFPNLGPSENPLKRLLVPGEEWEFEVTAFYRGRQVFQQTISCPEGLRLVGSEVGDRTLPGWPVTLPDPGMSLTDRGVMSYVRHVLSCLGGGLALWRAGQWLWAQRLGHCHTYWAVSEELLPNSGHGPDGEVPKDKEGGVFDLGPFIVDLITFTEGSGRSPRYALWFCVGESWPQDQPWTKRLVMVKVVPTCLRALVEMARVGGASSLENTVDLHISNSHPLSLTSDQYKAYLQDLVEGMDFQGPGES
Strand | fitted relative affinity [z-score]
AGTAATGACCTTCTCAGGAGGTGCTAG | 0.629
GACGGTTACGACTTTCGGGACGTGCTA | 0.756
GACGATTTCAGAATCGAGACGTGCTAG | 2.57
TTAGGTCTCGTTCTCGGTTAGTGCTAG | 1.81
GACGATTTCAGACTGGAGATGTGCTAG | 0.986
TCATTTTTCATTGTTTTACTGTGCTAG | 1.87
TCAGTCTTGGTTCTCAGACTGTGCTAG | 1.1
TTAGGACTAGGGACTGGGTTAGTGCTA | -1.04
TCATTTTTCATTATTGTACTGTGCTAG | 2.51
TTAGATTCCAGTTCCGATTAGTGCTAG | 3.65
TCAGATCTCAGTATCGATTAGTGCTAG | 1.74
GACGCTTTCCTTTCCCTGACGTGCTAG | 7.81
TTAGATTGCAGTTTCGATTAGTGCTAG | 4.58
TGCCATATTTATCTGCAAAGGTGCTAG | 0.121
CTCTCCATGTGTTTAAAAAGGTGCTAG | 0.537
TTAGATATCCGACTGGATTAGTGCTAG | 0.633

Series 5 — technique: competition protein-binding microarray; molecule type: double-stranded DNA, one strand shown; sample: in vitro; tested at: 2 µM; together with: Cbf1 competitor, 0.05 µM; direction: higher = stronger binding; all sequences stand within: … GTCTTGATTCGCTTGACGCTGCTG
Target: Phosphate system positive regulatory protein PHO4, full length, GST-tagged (PHO4, Saccharomyces cerevisiae, UniProt P07270, residues 1-312)
Setting: whole 60-bp probe, lowest competitor level
Residues (chain): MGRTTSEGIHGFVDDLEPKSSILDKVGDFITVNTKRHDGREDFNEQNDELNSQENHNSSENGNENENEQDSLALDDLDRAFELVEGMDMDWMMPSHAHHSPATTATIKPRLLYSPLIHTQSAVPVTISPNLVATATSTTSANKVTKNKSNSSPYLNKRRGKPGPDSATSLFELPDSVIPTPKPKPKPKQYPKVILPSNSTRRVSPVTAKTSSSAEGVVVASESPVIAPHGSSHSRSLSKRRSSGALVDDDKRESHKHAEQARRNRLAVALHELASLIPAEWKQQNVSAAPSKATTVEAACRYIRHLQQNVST
Strand | fluorescence intensity [a.u.]
AAGAAATGAGGCCGTCACAGATGTTAAGAATTGAAG | 4940
TATTTTACTATCTTACACGTGTTGGTAACATAAACG | 19200
CTTTCCCGATCTTGTTAGGTGGGTGTAGCACATTTG | 4140
AAATTACTAAGTTGTGAAGTGGGTGACGCCGTATGA | 3830
AAATTACTAAGTTGTCACTGAACTTACCCCGTATGA | 2550
ACTTGGCAGTAAGAACACGTGTCGGTACCGGAGCGG | 17100
TCTCCCTCACTGCATCCCGTGACGGGTTTCTTAGCA | 5990
CTATTGTCTTAGAATCACGTGGACCCTAGACTATAG | 15600
AAAGCGGTAATTTGAACGGTGGGTGCAGATATCTAT | 4030
CGTCCTAGTGATTGGCGCGTGGGTGCCATGAGGAAG | 12100
AAAGCGGTAATTTGTTGCGTGGGTGCAGATATCTAT | 6930
AAATTACTAAGTTGAGGAGTGGGTGACGCCGTATGA | 4620
TAACATCGCATACATCATGTTTAGGAGGCTTGAACA | 6080
AACATCTGCGGACAGCACGTGCGGATTAATTCTCAA | 20000
TGGCCTAAGGTGAAGGTCGTGCTTTTTGTTCAATTG | 7810
AAAGCGGTAATTTTTCACGTGGTTTCACATATCTAT | 15000
CGGGGTTAAGTTTGGAAAGTGGGTGGCTTGCAGCAG | 4570
TGTGATTCCTCGGGCCACGTGAAATGAATCAGCCCT | 13900
TTTGCAGTGTAATCTCACGTGCAAAAGACTGAGTAA | 12900
TGAACGCCATTACTAATGCATTTAAAAACTGCTTTT | 3180
TCAAATATGCACCATCTCGTGATGGTTCAAAGATTG | 6360

Excerpt of the above (series 4):
Strand | fitted relative affinity [z-score]
GACGATTTCAGACTGGAGATGTGCTAG | 0.986
GACGCTTTCCTTTCCCTGACGTGCTAG | 7.81
CTCTCCATGTGTTTAAAAAGGTGCTAG | 0.537
TTAGGACTAGGGACTGGGTTAGTGCTA | -1.04
TGCCATATTTATCTGCAAAGGTGCTAG | 0.121
TTAGATTCCAGTTCCGATTAGTGCTAG | 3.65
TTAGGTCTCGTTCTCGGTTAGTGCTAG | 1.81
TCAGATCTCAGTATCGATTAGTGCTAG | 1.74
TCAGTCTTGGTTCTCAGACTGTGCTAG | 1.1
GACGGTTACGACTTTCGGGACGTGCTA | 0.756
GACGATTTCAGAATCGAGACGTGCTAG | 2.57
TCATTTTTCATTGTTTTACTGTGCTAG | 1.87
TTAGATATCCGACTGGATTAGTGCTAG | 0.633
TTAGATTGCAGTTTCGATTAGTGCTAG | 4.58
AGTAATGACCTTCTCAGGAGGTGCTAG | 0.629
TCATTTTTCATTATTGTACTGTGCTAG | 2.51
